Measurements collected from several papers.
Every numbered part comes from another study and shows a few of its results, in no order.

Set 1
Target: Histone acetyltransferase KAT6A, both winged helices, GST fusion (KAT6A, Homo sapiens, UniProt Q92794, residues 1-181)
Technique: protein binding microarray
Form: double-stranded DNA, one strand shown
Sample: in vitro
Concentration: not given
Notes: 8-mer, flanks averaged, mean of 2 arrays, mostly near background
Reference: not given
Reading: higher = stronger binding
Measurement: E-score
Target sequence (chain): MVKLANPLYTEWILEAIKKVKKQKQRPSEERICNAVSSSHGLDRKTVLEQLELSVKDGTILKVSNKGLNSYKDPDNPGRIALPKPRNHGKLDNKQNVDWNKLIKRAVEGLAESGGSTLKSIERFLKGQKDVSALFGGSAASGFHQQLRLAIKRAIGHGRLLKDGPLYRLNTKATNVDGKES
AGCTTCAA: -0.202
CGAAGAAG: -0.0877
ACCTATTA: -0.12
AAAAAGAG: -0.237
ACTGACGG: 0.143
ATGATGAC: -0.0656
CACGGCAC: 0.247
CACGCCCA: -0.129
GTTTGGCA: -0.158
CGCCGGCA: 0.28
ACGGACCC: 0.139
CAGGTCAC: -0.0612
CGTACACA: 0.0814
CACACAAC: 0.0554
ATGGCTCG: -0.105
CGTGAGAC: 0.183
AGAAGTTC: -0.0919

Set 2
Target: Centromere-binding protein 1, full length, N-terminal tag (CBF1, Saccharomyces cerevisiae, UniProt P17106, residues 1-351)
UniProt P17106, sequence (whole entry, looked up): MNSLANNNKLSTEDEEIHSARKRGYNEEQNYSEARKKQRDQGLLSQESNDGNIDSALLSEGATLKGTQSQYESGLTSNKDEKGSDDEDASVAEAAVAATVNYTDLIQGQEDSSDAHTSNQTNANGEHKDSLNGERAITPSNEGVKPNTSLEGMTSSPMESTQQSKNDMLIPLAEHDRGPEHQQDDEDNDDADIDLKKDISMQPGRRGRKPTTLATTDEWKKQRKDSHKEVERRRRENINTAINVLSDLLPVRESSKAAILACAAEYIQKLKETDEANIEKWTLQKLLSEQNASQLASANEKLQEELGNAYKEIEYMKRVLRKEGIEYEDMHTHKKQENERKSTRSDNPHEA
Technique: protein-binding microarray
Form: double-stranded DNA, one strand shown
Sample: in vitro
Concentration: 0.8 µM
Notes: whole 60-bp probe, no competitor
Reading: higher = stronger binding
Measurement: fluorescence intensity
Shared flanks, not repeated: … GTCTTGATTCGCTTGACGCTGCTG
GAAAATTTTTAAGTCAGTGTGACCCAATAAGAATAG: 756 a.u.
CTAGCCGGTTTCTTCCACGCGTCAATCCGTTTGTTC: 534 a.u.
GAAATGCATTAGAATAACGTGCCGTTAATTTTGTAG: 881 a.u.
CCTAACTACTATAATCACGGCTCATAGCTTCGTACA: 538 a.u.
CTACGCTATCACTTACATGTGATATCATTTCTGTTC: 2160 a.u.
CCTAACTACTATACTTACACCACATAGCTTCGTACA: 531 a.u.
CTAGTTGTTATTATTATCGTGATTATTATTTAGTTC: 698 a.u.
CTAAAGCGTATTTGTGACCAGTGTACTTCAAGGTTC: 542 a.u.
CTAACAATAAAAAACCACGGGATCAGCATTAACTTC: 2050 a.u.
GAATTATTCATCTTGTACGTGATAATGTTTCATTAG: 604 a.u.
TGTACGAAGCTATAAGCACAGGTTATAGTAGTTAGG: 514 a.u.
CTACGGTCTTGGCCGCACGTAAAACCTGTGTGGTTC: 493 a.u.
CTAACCTTTCAGCCTCACCTGCAGTATTTCTTCTTC: 552 a.u.
GAAGAGACGCCCGTTGATGTTACTAGTGATGAATAG: 526 a.u.
CTATACTGCACCAACAGGTGAACTCAAAACTACTTC: 522 a.u.
CCTAACTACTATAGTGACAAAGCATAGCTTCGTACA: 465 a.u.
GAAAGGTTAAAAGCACGTGGCACGAGAAACGCGTAG: 6750 a.u.
GAACCCATATTAAATCACGCCTATCAACACTTATAG: 920 a.u.

Set 3
Target: Interferon regulatory factor 7, full length, phosphomimetic (IRF7, Homo sapiens, UniProt Q92985, residues 1-503, S471D/S472D/S475D/S476D/S477D/S483D/S484D/S487D)
UniProt Q92985, sequence (whole entry, unmodified, looked up): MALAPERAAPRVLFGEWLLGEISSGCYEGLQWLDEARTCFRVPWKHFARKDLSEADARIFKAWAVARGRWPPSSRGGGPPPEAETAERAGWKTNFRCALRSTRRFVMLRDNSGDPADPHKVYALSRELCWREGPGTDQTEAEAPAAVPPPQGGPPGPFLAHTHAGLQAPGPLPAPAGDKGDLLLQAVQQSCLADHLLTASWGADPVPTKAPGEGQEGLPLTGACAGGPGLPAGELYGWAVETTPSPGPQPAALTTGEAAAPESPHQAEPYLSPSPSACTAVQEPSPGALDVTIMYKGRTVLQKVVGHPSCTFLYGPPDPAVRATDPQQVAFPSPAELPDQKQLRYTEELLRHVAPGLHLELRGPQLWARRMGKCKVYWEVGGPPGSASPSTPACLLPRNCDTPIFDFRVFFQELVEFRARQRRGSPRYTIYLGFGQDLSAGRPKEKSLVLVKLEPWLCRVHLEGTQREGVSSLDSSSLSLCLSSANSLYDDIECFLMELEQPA
Technique: protein-binding microarray
Form: double-stranded DNA, one strand shown
Sample: in vitro
Concentration: 2200 nM top
Notes: 60-bp whole probe
Together with: salmon DNA 0.4 mg/ml
Reference: random background probes
Reading: higher = stronger binding
Measurement: fitted relative affinity
Shared flanks, not repeated: GCCTAGCAC … GTCTTGATTCGCTTGACGCTGCTG
TTAGGTATCGGTTTGGGTTAGTGCTAG: 2.71 z-score
TTAGGTTTCGGGCTCGGTTAGTGCTAG: 3.37 z-score
TTAGAGTTCAGTTTCGATTAGTGCTAG: 5.92 z-score
GAGTCTTCCCTTTTAAGTTCGTGCTAG: 1.86 z-score
TCAGCTCTGTGCTTTCCTACTGTGCTA: 1.33 z-score
TCAGCTGTGGGTTTGAGACTGTGCTAG: -0.429 z-score
TTAGGACTGCTACTGCTATAGTGCTAG: -0.205 z-score
AACCATTTTGTTTTTCATTAGTGCTAG: 2.05 z-score
CCACTGCAAAAACATCCTGGGTGCTAG: 0.479 z-score
GACGGTATCGGTATCGGGGCGTGCTAG: 0.23 z-score
AAGCCAGCCAAGGCCACTGTGTGCTAG: -0.823 z-score
TTAGATATCGGGTAGCGATTAGTGCTA: -0.624 z-score
TCAGATTTCAGTTTCTCACTGTGCTAG: 3.15 z-score
GTCGGTCTCGGTCTCGGGACGTGCTAG: 0.534 z-score
TCAAGTGTGCCATATTTAACTGTGCTA: 0.00618 z-score
TTAGATATCAGTTTCGGTTAGTGCTAG: 7.7 z-score
TATTCCCCATCACTCACTCTGTGCTAG: 2.4 z-score
TTAGGACTGGACTATCGGTTTGTGCTA: 0.734 z-score
TTAGGTATCGGACTGGATTAGTGCTAG: 0.0319 z-score
TCAGTCCTCACTTCCTTCTGGTGCTAG: 2.39 z-score
TGGCACCTCTAGACTCTAAATGTGCTA: -0.465 z-score
GACGGACTGCACTATCGGGACGTGCTA: -0.304 z-score
TTAGATATCAGTCACGATTAGTGCTAG: -0.1 z-score
GACTGACTGGGTTTCGGGACGTGCTAG: 1.75 z-score
GACGATTTCGGGAATCGAGACGTGCTA: 0.994 z-score

Set 4
Target: Fragile X messenger ribonucleoprotein 1, C-terminal low-complexity region (Fmr1, Mus musculus, UniProt P35922)
Technique: RNA Bind-n-Seq
Form: RNA
Sample: in vitro
Concentration: 200 nM
Notes: whole 134-nt RNA, ends assumed
Together with: 150 mM KCl
Reference: input library
Reading: higher = stronger binding
Measurement: log2 enrichment
Shared flanks, not repeated: GGGAGUUCUACAGUCCGACGAUC … UGGAAUUCUCGGGUGUCAAGG
GCAGGAAGUAAAAACAAAUGGAAAUGCUUCGCAUAGUGGCAGGGGUGGGGGUUGCUAAGGAAAGGGUGGGAUGGGAGUGGGUAAAGAGUU: 0.675
UGGGAGGCGGAUUUUGUUUAUUUUUUUAGCUCAUUUCCAGGGGUGGGAAUUUUUUUUUAAUAUGUGUCAUGAAUAAAGUUGUUUUUGAAA: 0.14
CUCAAGUCCUGUGCUACACAUCGUAUGUACCGAAUCGGCCGGGGCCGGCCGGGGAAAGUAUUAUGUUACGCCGUUCGGAUCUGCACUUCC: -0.406
UAACUUUAGAGGAGGAUCUGAUGGAUAUGGCAGAGGACGUGGAUUUGGGGAUGGCUAUAAUGGGUAUGGAGGAGGACCUGGAGGUGGCAA: 0.363
CAAGUCCUGUGCUACACAUCGUAUGUACCGAAUCGUGUGUGUGUGUGUGUGUGUGUAAAGUAUUAUGUUACGCCGUUCGGAUCUGCACUU: 0.392
UGGCCCUGGUGGCAUGCGGGGAGGAAGAGGUGGCCUCAUGGAUCGUGGUGGGCCCGGUGGAAUGUUCAGAGGUGGCCGUGGUGGAGACAG: 0.476
UGUGCUACACAUCGUAUGUACCGAAUCGGGUUUUUUUGGGUUUUUUUGGGGUUUUUUUGGGGAAAGUAUUAUGUUACGCCGUUCGGAUCU: 0.178
CACAGACAACACGCACCCACAAAGACACAGAGGGAAGGGGUUGGGAUGGGGACAGGGUGCACAGCAGGGCGGGGUAGGACCCCAGCCCCU: 1.23
CACAGACAACACGCACCCACACAGACACAGAGGGAAGGGGUUGGGAUGGGGACAAGGUGCACAGCAGGGCGGGGUAGGACCCCAGCCCCU: 1.26
CAAGUCCUGUGCUACACAUCGUAUGUACCGAAUCGGUUUUUGGAGGAAAAAAAGGAAAGUAUUAUGUUACGCCGUUCGGAUCUGCACUUC: -0.526

For quick reference, copied from above (set 3):
TTAGGTTTCGGGCTCGGTTAGTGCTAG: 3.37 z-score
TTAGAGTTCAGTTTCGATTAGTGCTAG: 5.92 z-score
GAGTCTTCCCTTTTAAGTTCGTGCTAG: 1.86 z-score
TCAGCTCTGTGCTTTCCTACTGTGCTA: 1.33 z-score
TCAGCTGTGGGTTTGAGACTGTGCTAG: -0.429 z-score
TTAGGACTGCTACTGCTATAGTGCTAG: -0.205 z-score
AACCATTTTGTTTTTCATTAGTGCTAG: 2.05 z-score
CCACTGCAAAAACATCCTGGGTGCTAG: 0.479 z-score
GACGGTATCGGTATCGGGGCGTGCTAG: 0.23 z-score
